Assay results from different studies.
Numbered parts are unrelated; each lists some results of a single study.

Set 1 — technique: RNA Bind-n-Seq; molecule type: RNA; medium: in vitro; tested at: not given; relative to: input RNA pool; reading: higher = stronger binding
Target: RING finger protein unkempt homolog, zinc fingers 1-6, GST-SBP tag (UNK, Homo sapiens, UniProt Q9C0B0, residues 30-357)
Chain of UniProt Q9C0B0 (30-357, looked up): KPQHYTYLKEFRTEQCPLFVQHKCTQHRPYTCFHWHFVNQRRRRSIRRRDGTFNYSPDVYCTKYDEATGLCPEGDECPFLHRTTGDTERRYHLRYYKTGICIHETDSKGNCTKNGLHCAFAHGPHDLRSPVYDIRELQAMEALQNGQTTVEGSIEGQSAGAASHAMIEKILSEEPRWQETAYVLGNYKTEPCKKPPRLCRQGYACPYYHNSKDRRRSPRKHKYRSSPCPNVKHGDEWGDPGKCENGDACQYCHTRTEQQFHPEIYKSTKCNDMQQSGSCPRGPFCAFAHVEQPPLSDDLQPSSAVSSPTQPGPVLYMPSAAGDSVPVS
Setting: RNA with constant flanks, human and mouse sites, ends assumed
| Strand | bound/input enrichment |
| --- | --- |
| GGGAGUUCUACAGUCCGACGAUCAACAGAAUCAAACUAAGCCAUGUAUGAGGGUAAUCGAGAUGAGGAUAUUAACUCAAAAGAAAUAGGGUGAUUUUUAAAGGAUUAAUAAAAUUCUGAAAUGUUAAGUAGAAGAUUACAUUGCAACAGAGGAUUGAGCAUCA | 0.657 ratio |
| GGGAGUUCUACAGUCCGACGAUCUCCUCAACUAGAGAACAUGUUCAAAAGAAAGCUGCAGAAUGGAAAAUCAAGAUAGAUAUUAUAGCAGAACUUCGAUAUGACCUGCCAGCAUCAUACAAGUUUCACAAAAAGAAAUCAGUGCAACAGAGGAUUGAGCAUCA | 16.1 ratio |
| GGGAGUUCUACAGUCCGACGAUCUAUUUAAGUUAUUAGACUUGCUAAUACAAGCAUACAUGUGCAACAGCUACUGGAUACUGAUAGCUAUCAAACCUCAAAUUUAAAGAUUUUCCUUCAUGGAAAAGUUACUAUACUUUGCAACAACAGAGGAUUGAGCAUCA | 0.412 ratio |
| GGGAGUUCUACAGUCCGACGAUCUAUGGGGAUCAAUACAGAGCAACUGAUUUUGUUGUUCCUGGGCCUGGAAAAGUAGAGAUAACCUACACACCAAGUGACGGAACCCAAAAGGUGACAUACCUGGUACAUAACUUUGAAGAACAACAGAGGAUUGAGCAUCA | 0.182 ratio |
| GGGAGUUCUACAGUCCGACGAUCCGCCACAAGGAACUGUUUGCUUUGCAUCCAUCACCAGAUGAGGAAGAACCAAUCGAAAGGCUCAGUGUUCCUGAUGUGCCCAAAGAGCAUUUCGGACAAAGACUUCUUGUGAAAUGUUUACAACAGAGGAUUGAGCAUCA | 0.108 ratio |
| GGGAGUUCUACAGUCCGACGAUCGGAGGCUCUUCUCUGCUCAUUGAGGCGUUAUCAAACAGUGGUCCCAAGUGCCAUCUGGACAUUAAAUAUAUCCUGAACAAGAAUGGGGGAAUGAUGGCUGAAGGAGCACGCCACUUUUUUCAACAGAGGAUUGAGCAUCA | 0.174 ratio |

Set 2 — technique: protein-binding microarray; molecule type: double-stranded DNA, one strand shown; medium: in vitro; tested at: 2200 nM top; setting: 60-bp whole probe; added: salmon DNA 0.4 mg/ml; relative to: random background probes; reading: higher = stronger binding; constant ends, left off below: GCCTAGCAC … GTCTTGATTCGCTTGACGCTGCTG
Target: Interferon regulatory factor 7, full length, phosphomimetic (IRF7, Homo sapiens, UniProt Q92985, residues 1-503, S471D/S472D/S475D/S476D/S477D/S483D/S484D/S487D)
Chain of UniProt Q92985 (whole entry, unmodified, looked up): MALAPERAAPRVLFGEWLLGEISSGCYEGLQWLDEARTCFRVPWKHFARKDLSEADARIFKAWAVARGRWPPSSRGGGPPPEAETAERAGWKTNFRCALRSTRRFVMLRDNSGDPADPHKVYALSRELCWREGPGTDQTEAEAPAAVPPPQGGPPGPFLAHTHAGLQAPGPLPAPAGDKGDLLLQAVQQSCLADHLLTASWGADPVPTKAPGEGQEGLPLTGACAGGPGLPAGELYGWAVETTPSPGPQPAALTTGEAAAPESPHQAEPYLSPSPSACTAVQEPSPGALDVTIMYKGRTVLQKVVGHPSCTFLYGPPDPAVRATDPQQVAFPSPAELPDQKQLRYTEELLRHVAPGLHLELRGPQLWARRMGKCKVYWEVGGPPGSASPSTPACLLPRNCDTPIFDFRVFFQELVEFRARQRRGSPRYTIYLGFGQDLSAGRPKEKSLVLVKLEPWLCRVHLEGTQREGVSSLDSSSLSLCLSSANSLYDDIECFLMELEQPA
| Strand | fitted relative affinity [z-score] |
| --- | --- |
| GACGGATTGGGTCTCGGGACGTGCTAG | -0.162 |
| TTAGATCTCACTTTCGATTAGTGCTAG | 7.61 |
| ATAGGTATCGACTATCGGTTAGTGCTA | 0.607 |
| GACGGTTTCGGATCCGGGACGTGCTAG | 6.48 |
| GACGGTATCGGGTACCGGGACGTGCTA | -0.179 |
| TTAGATCTCAGTCTCGATGAGTGCTAG | -0.00664 |
| TTAAGTATCCTTTTCCTTTAGTGCTAG | 1.78 |

Set 3 — technique: universal PBM; molecule type: double-stranded DNA, one strand shown; medium: in vitro; tested at: not given; reading: higher = stronger binding
Target: Sal-like protein 4, full length isoform B (SALL4, Homo sapiens, UniProt Q9UJQ4-2, residues 1-616)
Setting: 8-mer, flanks averaged, mean of replicates
Target sequence (chain): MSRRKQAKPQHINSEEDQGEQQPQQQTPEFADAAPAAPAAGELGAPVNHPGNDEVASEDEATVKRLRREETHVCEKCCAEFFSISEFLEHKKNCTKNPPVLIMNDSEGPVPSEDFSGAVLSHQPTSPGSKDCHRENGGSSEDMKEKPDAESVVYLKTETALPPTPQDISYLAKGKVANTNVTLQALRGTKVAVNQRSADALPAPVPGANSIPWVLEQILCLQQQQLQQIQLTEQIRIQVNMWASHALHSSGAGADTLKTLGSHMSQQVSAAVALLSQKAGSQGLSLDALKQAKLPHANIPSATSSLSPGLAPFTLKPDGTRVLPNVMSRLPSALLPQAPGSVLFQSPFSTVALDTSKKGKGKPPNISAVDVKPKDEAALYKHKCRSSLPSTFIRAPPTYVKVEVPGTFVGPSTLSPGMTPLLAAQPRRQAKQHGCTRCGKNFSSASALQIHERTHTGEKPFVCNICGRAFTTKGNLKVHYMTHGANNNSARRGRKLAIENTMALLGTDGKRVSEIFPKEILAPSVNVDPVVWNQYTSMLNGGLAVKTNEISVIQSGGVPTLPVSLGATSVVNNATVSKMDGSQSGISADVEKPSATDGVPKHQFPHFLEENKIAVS
| Strand | E-score |
| --- | --- |
| CGGACACC | -0.345 |
| CTCCGGTC | -0.366 |
| CGGTGGGC | -0.251 |
| ACTTTTTC | 0.148 |

Mixed results
| Substance | target | assay | system | setting | scale | quantity | result |
| --- | --- | --- | --- | --- | --- | --- | --- |
| PhoQ, residues 284 288 289 292 302 303 ALSMDL | PhoP, residues 12 14 15 18 19 AWHSL (Escherichia coli, UniProt P23836) | Sort-seq, item: YFP reporter | E. coli | PhoQ-PhoP variant library, added: 10 µM Mg2+ | relative to: high Mg2+ state, higher = stronger signaling | fold induction | 2.11 |

Some of these lines once more (set 1):
| Strand | bound/input enrichment |
| --- | --- |
| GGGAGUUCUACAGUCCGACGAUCUAUUUAAGUUAUUAGACUUGCUAAUACAAGCAUACAUGUGCAACAGCUACUGGAUACUGAUAGCUAUCAAACCUCAAAUUUAAAGAUUUUCCUUCAUGGAAAAGUUACUAUACUUUGCAACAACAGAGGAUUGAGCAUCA | 0.412 ratio |
